{"data": "Measured values collected from several papers", "Voltage-dependent P/Q-type calcium channel subunit alpha-1A": "Voltage-dependent P/Q-type calcium channel subunit alpha-1A (Homo sapiens, UniProt O00555)", "Rab GDP dissociation inhibitor beta with Rab1A": "Rab GDP dissociation inhibitor beta, with Rab1A (Homo sapiens, UniProt P50395)", "note": "Protocols differ between the studies behind these lines. Several values in a cell are separate wells, animals, samples, runs or records."}
{"Structure (SMILES)": "Cn1c(=O)c2[nH]cnc2n(C)c1=O", "target or system": "Voltage-dependent P/Q-type calcium channel subunit alpha-1A", "test": "ion current, antagonist", "test system": "HEK293", "setting": "3 µM", "endpoint": "inhibition", "value": "-2%"}
{"Structure (SMILES)": "CN(C(=O)n1cnc(-c2ccc[n+]([O-])c2)c1)C1CCCCC1", "target or system": "ADRA2C (Homo sapiens, UniProt P18825)", "setting": "10 µM", "endpoint": "inhibition", "value": "-5%"}
{"Structure (SMILES)": "CC[C@@H]1[C@H](F)C(=O)N[C@@H]1COc1nccc2cc(C(N)=O)c(OC)cc12", "target or system": "LRRK2 (Homo sapiens, UniProt Q5S007)", "test": "ATP-site probe binding, ActivX profiling", "test system": "THP-1 cell lysate", "setting": "0.01 mM, Lys2 site", "endpoint": "inhibition", "value": "18.4%"}
{"Structure (SMILES)": "O=C(O)C(O)C(O)C(=O)O.c1cnc2cc3c(cc2n1)[C@@H]1CNC[C@H]3C1", "target or system": "Voltage-dependent P/Q-type calcium channel subunit alpha-1A", "test": "ion current, antagonist", "setting": "30 µM", "endpoint": "inhibition", "value": "9%"}
{"Structure (SMILES)": "O=[N+]([O-])c1ccc2c(c1)S(=O)(=O)C=C2", "target or system": "Toxoplasma gondii", "test": "parasite growth, luciferase reporter", "test system": "HFF, tachyzoite", "setting": "72 h", "endpoint": "EC90", "value": "134 µM"}
{"Structure (SMILES)": "Cc1cc(C)cc(COc2cc3c(cc2OCc2cc(C)cc(C)c2)[C@H]2C[C@](O)(Cc4cn(Cc5ccc6ccccc6c5)nn4)C[C@H](C)N2CC3)c1", "target or system": "Rab GDP dissociation inhibitor beta with Rab1A", "test": "GDI2-Rab1A interaction, NanoLuc complementation", "setting": "6.25 µM", "endpoint": "inhibition", "value": "95.6%"}
{"Structure (SMILES)": "COc1cc(C(=O)NS(=O)(=O)c2ccccc2C)ccc1Cc1cn(C)c2ccc(NC(=O)OC3CCCC3)cc12", "target or system": "Volume-regulated anion channel subunit LRRC8C, part LRRC8A IL1 chimera (LRRC8C, Homo sapiens, UniProt Q8TDW0, E6A)", "test": "ion current, inhibitor, whole-cell patch clamp", "test system": "HCT LRRC8-/- cells", "setting": "1 µM, +100 mV", "endpoint": "inhibition", "value": "39% and 89.5% and 62.4% and 46.5% and 55.2% and 64.2%"}
{"Structure (SMILES)": "CC(=O)O[C@H]1C(=O)[C@@]2(C)[C@H]([C@H](OC(=O)c3ccccc3)[C@]3(O)C[C@H](OC(=O)[C@H](O)[C@@H](NC(=O)c4ccccc4)c4ccccc4)C(C)=C1C3(C)C)[C@]1(OC(C)=O)CO[C@@H]1C[C@@H]2O", "target or system": "Voltage-dependent P/Q-type calcium channel subunit alpha-1A", "test": "ion current, antagonist", "test system": "HEK293", "setting": "10 µM", "endpoint": "inhibition", "value": "13%"}
{"Structure (SMILES)": "Cn1cc(-c2ccc(-c3cncc(Cl)c3N3CCC4(CCNC4=O)CC3)cc2)cn1", "target or system": "COLO 205", "test": "gene expression, microarray, item: ISG20 mRNA", "setting": "concentration not given, 6 h", "how to read": "reference: untreated cells", "endpoint": "log2 fold change", "value": 2.93}
{"Structure (SMILES)": "Cc1cc(-c2ccnc3[nH]cc(F)c23)cc(F)c1[C@@]1(O)[C@H](C)CN(C2CCS(=O)(=O)CC2)C[C@@H]1C", "target or system": "LATS1 (Homo sapiens, UniProt O95835)", "test": "ATP probe binding, KiNativ, item: Lys2 site", "test system": "HEK293T cell lysate", "setting": "1 µM", "endpoint": "inhibition", "value": "56.5%"}
{"Structure (SMILES)": "Cc1nn(-c2nc3c(F)cc(F)cc3s2)c(O)c1C(c1ccccc1C(F)(F)F)c1c(C)nn(-c2nc3c(F)cc(F)cc3s2)c1O", "target or system": "Cyclic GMP-AMP synthase, catalytic domain; with DNA (CGAS, Homo sapiens, UniProt Q8N884)", "test": "cGAS phase separation, inhibitor", "setting": "50 µM", "endpoint": "inhibition", "value": "90.7%"}
{"Structure (SMILES)": "CCN(CC)CCOc1ccc2c(c1)C(=O)c1cc(OCCN(CC)CC)ccc1-2", "target or system": "human acetylcholinesterase", "test": "enzyme activity, inhibitor", "setting": "1 µM", "endpoint": "inhibition", "value": "> 50%"}
{"Structure (SMILES)": "CCC(C)(C)C(=O)O[C@H]1C[C@@H](C)C=C2C=C[C@H](C)[C@H](CC[C@@H]3C[C@@H](O)CC(=O)O3)[C@H]21", "target or system": "Voltage-dependent P/Q-type calcium channel subunit alpha-1A", "test": "ion current, antagonist", "test system": "HEK293", "setting": "3 µM", "endpoint": "inhibition", "value": "59%"}
{"Structure (SMILES)": "C[C@]12CCC(O)CC1=CCC1C2CC[C@]2(C)/C(=N\\NC(N)=S)CCC12 (some centres unmarked)", "target or system": "Trypanosoma cruzi", "test": "reporter translation, Renilla luciferase mRNA translation", "test system": "cell-free extract", "setting": "40 µM", "how to read": "reference: DMSO", "endpoint": "inhibition", "value": "-7.8%"}
{"Structure (SMILES)": "O=C(C[C@@H](C(F)F)n1ccc(F)n1)N1CCC(O)(Cn2cnc3c(cnn3-c3ccc(F)cc3)c2=O)CC1", "target or system": "USP7 (Homo sapiens, UniProt Q93009)", "test": "enzyme activity, inhibitor", "setting": "50 µM", "endpoint": "inhibition", "value": "96.8% and 99%"}
{"Structure (SMILES)": "O=C(c1ccc(OCCN2CCCCC2)cc1)c1c(-c2ccc(O)cc2)sc2cc(O)ccc12", "target or system": "Toxoplasma gondii", "test": "parasite growth", "test system": "HFF, bradyzoite, glutamine-induced", "endpoint": "EC90", "value": "10.8 µM"}
{"Structure (SMILES)": "Cc1cc2c(cc1N1C(=O)c3cccc4c(CCCO)ccc(c34)C1=O)n(C)c(=O)n2C (racemic)", "target or system": "ATAD2B (Homo sapiens, UniProt Q9ULI0)", "test": "binding, BROMOscan binding", "setting": "1000 nM", "endpoint": "inhibition", "value": "59%"}
{"Structure (SMILES)": "Cc1ccc(Cn2cc(C[C@@]3(O)C[C@@H]4c5cc(OCc6cc(C)cc(C)c6)c(OCc6cc(C)cc(C)c6)cc5CCN4[C@@H](C)C3)nn2)cc1", "target or system": "Rab GDP dissociation inhibitor beta with Rab1A", "test": "GDI2-Rab1A interaction, NanoLuc complementation", "setting": "6.25 µM", "endpoint": "inhibition", "value": "83.3%"}
{"Structure (SMILES)": "CC(C)COc1ccc(CNC(=O)N(Cc2ccc(F)cc2)C2CCN(C)CC2)cc1", "target or system": "Voltage-dependent P/Q-type calcium channel subunit alpha-1A", "test": "ion current, antagonist", "test system": "HEK293", "setting": "3 µM", "endpoint": "inhibition", "value": "71%"}
{"Structure (SMILES)": "CCN1CCS/C1=C\\C=C\\C1=[N+](CC)CCS1", "target or system": "Trypanosoma cruzi", "test": "reporter translation, Renilla luciferase mRNA translation", "test system": "cell-free extract", "setting": "40 µM", "how to read": "reference: DMSO", "endpoint": "inhibition", "value": "10.6%"}
{"note": "Excerpt of the above:"}
{"Structure (SMILES)": "O=[N+]([O-])c1ccc2c(c1)S(=O)(=O)C=C2", "target or system": "Toxoplasma gondii", "test": "parasite growth, luciferase reporter", "test system": "HFF, tachyzoite", "setting": "72 h", "endpoint": "EC90", "value": "134 µM"}
{"Structure (SMILES)": "Cc1cc(C)cc(COc2cc3c(cc2OCc2cc(C)cc(C)c2)[C@H]2C[C@](O)(Cc4cn(Cc5ccc6ccccc6c5)nn4)C[C@H](C)N2CC3)c1", "target or system": "Rab GDP dissociation inhibitor beta with Rab1A", "test": "GDI2-Rab1A interaction, NanoLuc complementation", "setting": "6.25 µM", "endpoint": "inhibition", "value": "95.6%"}
{"Structure (SMILES)": "COc1cc(C(=O)NS(=O)(=O)c2ccccc2C)ccc1Cc1cn(C)c2ccc(NC(=O)OC3CCCC3)cc12", "target or system": "Volume-regulated anion channel subunit LRRC8C, part LRRC8A IL1 chimera (LRRC8C, Homo sapiens, UniProt Q8TDW0, E6A)", "test": "ion current, inhibitor, whole-cell patch clamp", "test system": "HCT LRRC8-/- cells", "setting": "1 µM, +100 mV", "endpoint": "inhibition", "value": "39% and 89.5% and 62.4% and 46.5% and 55.2% and 64.2%"}
